Measured values from different studies.
Protocols differ between the studies behind these lines. Values joined by “and” are separate records of one study, mostly repeats; a detail may differ. ± gives the spread as reported.
USP14: Ubiquitin carboxyl-terminal hydrolase 14 (USP14, Homo sapiens, UniProt P54578)
PPO3: PPO3 (Agaricus bisporus, UniProt C7FF04)
Gria2/Glutamate receptor 3: Gria2/Glutamate receptor 3 (Rattus norvegicus, UniProt P19491+P19492)

SMILES | target | test | system | conditions | how to read | endpoint | result
O=C1c2ccccc2C2(O)NC(=S)NC12O (stereo not drawn) | USP14 | enzyme activity, inhibitor |  | 17 µM |  | inhibition | 30%
COc1cc(Nc2nc(C)cc(-c3cnn4nc(OC)ccc34)n2)cc(C(F)(F)F)c1 | Phosphatidylinositol 4,5-bisphosphate 3-kinase catalytic subunit alpha isoform (PIK3CA, Homo sapiens, UniProt P42336, C420R) | inhibitor |  | 1 µM | baseline: control | remaining activity | 76%
CC(C)Oc1cc(Cl)ccc1CNc1cc(-c2ccccc2)nc2ncnn12 | G-protein coupled receptor 3 (GPR3, Homo sapiens, UniProt P46089, I200W) | cAMP GloSensor | human cells | 30 µM | higher is more cAMP | cAMP luminescence | 21000 a.u. and 15700 a.u. and 17600 a.u. and 18900 a.u.
Oc1cc(O)c2cc(O[C@@H]3OC[C@H](O)[C@H](O)[C@H]3O)c(-c3ccc(O)c(O)c3)[o+]c2c1 | PPO3 | fluorescence quenching |  | 298 K |  | binding free energy ΔG | -6.312 ± 0.0143 kcal/mol
O=C1c2sc(-c3ccc(N4CCC(F)C4)nc3F)nc2CCN1c1cccnc1 (stereo not drawn) | TAR DNA-binding protein 43, aggregated (TARDBP, Homo sapiens, UniProt Q13148) | saturation autoradiography | human, FTLD-TDP type A brain sections | 0.28 nM |  | specific binding | 7.43 nM
CC(=O)C12NC(C)(C)CC1(C)C(=O)C1=C2c2c(c3c4n2C(C)(C)CC2=C4C4(CC(C)(C)NC(C)(C4)C2=O)CC3(C)C)C(=O)C(C)(C)N1 (single isomer, unassigned; (+)) | Glutamate NMDA receptor; GRIN1/GRIN2B (GRIN1/GRIN2B, Homo sapiens, UniProt Q05586+Q13224) | ion current, agonist, whole-cell patch clamp | HEK293T | 10 µM |  | activation | 2.32 ± 0.02%
C1=Cc2ccccc2N(Cc2cc(-c3ccc(OCc4ccccc4)cc3)no2)c2ccccc21 | PPO3 | enzyme activity, inhibitor |  | concentration not given |  | apparent Km | 4.39 mM
CC(/C=C/C(=O)NO)=C\[C@@H](C)C(=O)c1ccc(N(C)C)cc1 | Histone deacetylase 8 (HDAC8, Homo sapiens, UniProt Q9BY41) | ITC | Tris-HCl buffer | 278 K |  | TΔS° | 4.43 kcal/mol
O=C(Nc1cc(C(=O)Nc2ccc(S(=O)(=O)O)cc2S(=O)(=O)O)cc(C(=O)Nc2ccc(S(=O)(=O)O)cc2S(=O)(=O)O)c1)Nc1cc(C(=O)Nc2ccc(S(=O)(=O)O)cc2S(=O)(=O)O)cc(C(=O)Nc2ccc(S(=O)(=O)O)cc2S(=O)(=O)O)c1 | P2X purinoceptor 1 (P2RX1, Homo sapiens, UniProt P51575) | antagonist, calcium influx |  | 31.6 µM, together with: submaximal α,β-methylene ATP | baseline: ionomycin response | calcium influx | 0.452% and 2.63% and 2.17%
C[C@H](NC(=O)CN)C(=O)NCC(=O)N[C@@H](C)C(=O)N[C@@H](C)C(=O)NCC(=O)NCC(=O)N[C@@H](C)C(=O)NCC(=O)NCC(=O)NCC(=O)NCC(=O)NCC(=O)NCC(=O)NCC(=O)N[C@@H](CCCCNC(=O)CCCC[C@@H]1SC[C@@H]2NC(=O)N[C@@H]21)C(N)=O | Programmed cell death 1 ligand 1 (Cd274, Mus musculus, UniProt Q9EP73) | flow cytometry, refers to: Cd274 |  | concentration not given, 48 h | baseline: 0 h | relative surface expression | 0.98 and 0.883
C=CC(=O)N1CCCC(n2c(=O)c3ncccc3n(Cc3ccc(Oc4ccccc4)cc3)c2=O)C1 (stereo not drawn) | EH domain-containing protein 1 (Homo sapiens, UniProt Q9H4M9) | thermal proteome profiling, refers to: EHD1 |  | treated |  | melting temperature | 44.1 °C and 48.3 °C
O=C1Nc2ccccc2C1C1(O)C(=O)Nc2ccc(F)cc21 (stereo not drawn) | USP14 | enzyme activity, inhibitor |  | 17 µM |  | inhibition | 5%
C#CCOC(=O)[C@]1(C)C=C(C(=O)Nc2cccc(C(=O)Nc3ccc(C)c(Nc4nccc(-c5cccnc5)n4)c3)c2)C(=O)CC1 | Mitogen-activated protein kinase 9 (MAPK9, Homo sapiens, UniProt P45984) | enzyme activity, inhibitor |  | 0.1829 µM, unit not given | baseline: vehicle | remaining activity | 0.462
Cc1ccc(-c2c(/C=C(\C#N)C(=O)NC(C)C)n(CCCO)c3ncnc(N)c23)cc1 | Tyrosine-protein kinase ABL1, phosphorylated (ABL1, Homo sapiens, UniProt P00519, E255K) | binding, competition with immobilised ligand |  | 1 µM |  | remaining binding | 98%
CCCCCCCO[C@H]1CO[C@H](CO)[C@@H](O)[C@H](O)[C@@H]1O | Type 1 fimbrin D-mannose specific adhesin, lectin domain (fimH, Escherichia coli K-12, UniProt P08191) | binding, isothermal titration calorimetry |  | 25 °C, individual direct titrations |  | -TΔS | 2.72 kcal/mol and 3.01 kcal/mol
CC[C@H](C)[C@H](NC(=O)[C@@H](NC(=O)[C@@H](NC(=O)[C@@H](NC(=O)[C@H](CCCNC(=N)N)NC(=O)[C@H](CCC(=O)O)NC(=O)[C@H](CCC(=O)O)NC(=O)[C@H](C)NC(=O)[C@H](CCC(=O)O)NC(=O)CNC(=O)[C@H](C)NC(=O)CN)C(C)C)C(C)C)C(C)C)C(=O)N[C@@H](CO)C(=O)N[C@@H](CO)C(=O)N[C@@H](CO)C(=O)N[C@@H](CCC(=O)O)C(=O)N[C@@H](CC(=O)O)C(=O)N[C@@H](CO)C(=O)N[C@@H](CC(=O)O)C(=O)N[C@@H](C)C(=O)N[C@@H](CCC(=O)O)C(=O)N[C@@H](CC(N)=O)C(=O)N[C@@H](CO)C(=O)N[C@@H](CO)C(=O)N[C@@H](CO)C(=O)N[C@@H](CCCNC(=N)N)C(=O)N[C@@H](Cc1ccc(O)cc1)C(=O)O | Small ubiquitin-related modifier 1, residues 17-97 (Homo sapiens, UniProt P63165, C52A) | binding, ITC |  | pH 7.4, 298.15 K, N-terminally truncated protein |  | ΔG | -5.75 ± 0.05 kcal/mol
O=C(c1ccccn1)N1CCc2ccccc2C1 | USP14 | enzyme activity, inhibitor |  | 17 µM |  | inhibition | 33%
CC(=O)N[C@@H](Cc1ccc(O)cc1)C(=O)N[C@@H](CC(N)=O)C(=O)N1CCC[C@H]1C(=O)N[C@@H](Cc1ccccc1)C(=O)N[C@@H](CCC(=O)O)C(=O)N[C@@H](CCC(=O)O)C(=O)NCC(=O)NCC(N)=O | EH domain-containing protein 1, EH domain (Homo sapiens, UniProt Q9H4M9) | peptide binding, ITC |  | concentration not given, 0 mM NaCl |  | binding stoichiometry | 1.09 and 0.959 and 1.06
CCOC(=O)/C=C/c1nccn1CCOCCOC1(c2ccc(OC)cc2)c2ccccc2-c2ccccc21 | Sodium- and chloride-dependent glycine transporter 1 (SLC6A9, Homo sapiens, UniProt P48067) | cell-free assay |  | 1 µM |  | remaining signal | 85.3%
O=C(NC1(O)C(=O)c2ccccc2C1=O)c1ccc(C(F)(F)F)cc1 | USP14 | enzyme activity, inhibitor |  | 17 µM |  | inhibition | 24%
O=C(O)Cc1cc2c(cc1C(=O)c1ccccc1I)OCO2 | Gria2/Glutamate receptor 3 | glutamate-evoked current, whole-cell patch clamp | HEK-293T | concentration not given |  | current amplitude | 221 ± 18 pA
CCCCCCCCCCCCC/C=C/C=O | 60 kDa heat shock protein, mitochondrial (Homo sapiens, UniProt P10809) | competitive isoTOP-ABPP, refers to: HSPD1 cysteine peptide | proteome, soluble, MDA-MB-231 | 100 µM, together with: iodoacetamide probe | baseline: DMSO over compound-treated, higher = stronger cysteine blockade | isoTOP-ABPP competition ratio | 1.1
COC(=O)Cc1cc2c(cc1C(=O)c1ccc(Cl)cc1Cl)OCO2 | Gria2/Glutamate receptor 3 | glutamate-evoked current, whole-cell patch clamp | HEK-293T | concentration not given, glutamate alone after washout, together with: glutamate |  | current amplitude after recovery | 468 ± 38 pA
CCCCCC=CC=C1C(=O)C=CC1CC=CCCCC(=O)O (stereo not drawn) | Ketosamine-3-kinase, C24 (FN3KRP, Homo sapiens, UniProt Q9HA64) | competitive isoTOP-ABPP | proteome, soluble, MDA-MB-231 | 100 µM, 60 min, together with: iodoacetamide probe | baseline: DMSO over compound-treated, higher = stronger cysteine blockade | isoTOP-ABPP competition ratio | 1.7
